# Published values of several laboratories.
# Each numbered part is a random draw from the data of one study; scales do not carry over between parts. Substitutions count along the parent as printed.
# Chain of UniProt Q13177 (whole entry, looked up): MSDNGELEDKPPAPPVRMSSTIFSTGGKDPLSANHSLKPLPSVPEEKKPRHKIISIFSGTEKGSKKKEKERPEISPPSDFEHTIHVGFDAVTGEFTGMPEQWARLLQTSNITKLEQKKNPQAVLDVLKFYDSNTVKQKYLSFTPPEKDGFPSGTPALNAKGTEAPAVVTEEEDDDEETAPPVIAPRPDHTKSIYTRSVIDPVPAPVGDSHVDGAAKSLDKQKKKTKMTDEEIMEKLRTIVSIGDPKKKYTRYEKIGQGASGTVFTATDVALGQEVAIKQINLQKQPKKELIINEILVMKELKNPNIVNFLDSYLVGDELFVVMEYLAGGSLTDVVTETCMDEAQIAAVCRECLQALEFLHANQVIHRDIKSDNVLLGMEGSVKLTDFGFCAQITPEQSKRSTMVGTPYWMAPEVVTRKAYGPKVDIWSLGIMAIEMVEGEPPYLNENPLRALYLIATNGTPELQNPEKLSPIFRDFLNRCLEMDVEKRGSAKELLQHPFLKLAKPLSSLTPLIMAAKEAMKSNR

# Block 1 — method: protein-binding microarray; form: double-stranded DNA, one strand shown; medium: in vitro; tested at: not given; reading: higher = stronger binding
# Target: Hepatocyte nuclear factor 3-beta, forkhead domain (FOXA2, Homo sapiens, UniProt Q9Y261, residues 142-269)
# Setting: k-mer, scored over probes, only values ≥0.25
# Target sequence (chain): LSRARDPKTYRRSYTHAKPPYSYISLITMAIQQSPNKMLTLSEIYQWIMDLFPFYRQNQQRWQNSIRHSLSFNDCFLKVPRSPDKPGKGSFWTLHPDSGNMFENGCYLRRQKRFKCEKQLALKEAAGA
Sequence,E-score
ACTACAGA,0.273
ACACTTAA,0.269
GGTTAGTA,0.27
CAATACAA,0.322
GTATCATA,0.356
AAACTAAC,0.253
ACTTTACT,0.261
TACACCTA,0.288

# Block 2 — target: CCNB1, cyclin fold, Cln2 fusion (human); method: yeast growth competition, sequencing; medium: yeast; setting: weak parent motif; baseline: not given; reading: higher = stronger binding
# Starting sequence: RBL1 docking peptide (human); GSAKRRLFGEDPP
Variant,normalised enrichment score
GSAKRNLFGEDPP [R6N],0.532
GSAKRRLWGEDPP [F8W],-0.298
GSAKRRLFGEDPH [P13H],1.4
GSAKWRLFGEDPP [R5W],-0.159
GSEKRRLFGEDPP [A3E],0.888
GSAKRRLFVEDPP [G9V],0.906
GSAKLRLFGEDPP [R5L],0.877
GSAKRRFFGEDPP [L7F],0.17

# Other studies, line by line
Structure (SMILES),target or system,assay,test system,setting,measurement,result
Cc1cc(Cl)nc(NCCCc2nc(C(C)C)no2)n1,,,"mouse, microsomes or S9","2 µM, 0.5 h",remaining compound,0.282%
CN(C)C(=O)Cn1cc(-c2nc([C@@](C)(c3ccc(-c4cnc(N)nc4)cc3)C3CC3)no2)cn1,"PAK2 (Homo sapiens, UniProt Q13177)","cell-free assay, competition with immobilised ligand",,1 µM,remaining binding,90%
O=c1c2ccccc2nc(NCCCCc2ccccc2)n1-c1ccccc1,,,"mouse, microsomes or S9","2 µM, 0.5 h",remaining compound,< 1%

# Repeated from above (block 2):
Variant,normalised enrichment score
GSEKRRLFGEDPP [A3E],0.888
GSAKRRLFVEDPP [G9V],0.906
